Measured values collected from several papers.
Matrix: plasma
Route: oral

SMILES | system | conditions | AUC(0-inf)
C[C@@H]1CCC[C@H](n2cnc(-c3cc(Cl)ccc3-n3cc(Cl)nn3)cc2=O)c2cc(ccn2)-c2c(cnn2C(F)F)NC1=O | human | 500 mg, single dose, fed, healthy volunteers | 44800 ng·h/mL
Nc1ccc(-c2nc([C@H]3CCc4cc(-c5cc(Cl)ccc5-n5cnnn5)cc(=O)n43)c(F)[nH]2)c(F)n1 | human | 5 mg, single dose, fasted | 948 ng·h/mL
CS(=O)(=O)n1cc2c(n1)CN([C@H]1CO[C@H](c3cc(F)ccc3F)[C@@H](N)C1)C2 | male human | 25 mg, single dose, fasted | 25.1 µM·h
COc1cccc(-c2ccc(NC(=O)C3=C(C(=O)O)CCC3)c(F)c2)c1 | male human | 10 mg, single dose, fasted, healthy volunteers | 41000 ng·h/mL
CNC(=O)c1ccccc1Sc1ccc2c(/C=C/c3ccccn3)n[nH]c2c1 | human | 7 mg, single dose, fed | 181 ng·h/mL
CCOc1ccc(Cc2cc([C@@H]3S[C@H](CO)[C@@H](O)[C@H](O)[C@H]3O)c(OC)cc2C)cc1 | human | 1 mg, single dose, fasted, healthy volunteers | 337 ng·h/mL
O=C(c1nc2n(n1)[C@H](c1ccccc1)C[C@@H]2F)C1CC1 | human | 225 mg, single dose, fasted, healthy volunteers | 46800 ng·h/mL
CC(C)(Sc1ccncc1-c1ccc(C#N)c2ccccc12)C(=O)O | male human | 15 mg, single dose, fasted | 252 ng·h/mL
